{"data": "Measured values pooled from the literature", "note": "A part holds a random share of what one study measured. Substitutions count along the parent as printed."}
{"data": "Set 1", "target": "RNA binding protein fox-1 homolog 2, RRM domain, GST-SBP tag (RBFOX2, Homo sapiens, UniProt O43251-10, residues 100-194)", "technique": "RNA Bind-n-Seq", "form": "RNA", "sample": "in vitro", "tested at": "365 nM", "notes": "natural RNA segment, single round, ends assumed", "reference": "no-protein control", "reading": "higher = stronger binding", "shared flanks, not repeated": "GGGAGUUCUACAGUCCGACGAUC … UGGAAUUCUCGGGUGCCAA", "Residues (chain)": "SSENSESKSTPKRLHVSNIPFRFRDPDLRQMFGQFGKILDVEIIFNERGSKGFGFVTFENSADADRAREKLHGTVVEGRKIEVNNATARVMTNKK"}
{"Sequence": "UGGCACAGUGUGUCUGCUAGCUGCUUCCACACCCCUUAGCCAUGUUAUCUGUAGAGUACCGGAUAGUGUUUGCUUUUUCCUCCCAAGCUGACAGAAGCUGGGCAUCAGUG", "RBNS enrichment (R)": 0.688}
{"Sequence": "ACAGAACCAAGAGUGGCAAUGCUUUGGAGAAUAGCAGUCCAGCCUAGUUAACAUGGGGAAAGAUGACAACAUUGUAUGUAGUGUUGAACCUGAAGACAUCCUACAAUGAU", "RBNS enrichment (R)": 0.376}
{"Sequence": "GAAACUUGCACAGCUAGCUAUGCAUCUACAUUUUGGUUUGGGGUUAGUUAUGAAAUGUUCUUAAUAUGACGUGUUCAAUAACUUCACAUAAACUUCCUGUUCUCCAAAAC", "RBNS enrichment (R)": 0.292}
{"Sequence": "UUGUGUUUAUGUCAUGGGUCAUUUUUUUUUAGUUACAGAAGCAGUUGUGUUAAUAUUUAGAAGAAGAUGUAUAUCUUCCAGAUUUUGUUAUAUAUUUGGCAUAAAAUACG", "RBNS enrichment (R)": 0.818}
{"Sequence": "UUUAUUUUGCUGCUUUGAUUUUGCUUCUGUCUGCCCCUCACAUGUGCAGUGGCAGGCGUGUUUGAGCGAGCCUCCUUCCUUAUUCAUAGGGAUUCAGUGUUGACUGUUCC", "RBNS enrichment (R)": 0.384}
{"Sequence": "GGGCAGCCCAAAGCUGCAGGUGCCAGGGCCCACCCCAGCCUCGCCUGUCACCCCCACUCCCGCCUCAGGGCCAGGCCCAGGCCUCACCACCUGACGCUGCAUGAGACAUU", "RBNS enrichment (R)": 7.5}
{"Sequence": "UAUUUGGUCUUAACUGGAUUUUAAAGAGUUUGGCGUAUUAGUAGCAUUUAAAGCCAGAUAGGGCACCCUUGCUGUGUCAAUGAGGAAGUUACUGUAAACACAGUGUUCGA", "RBNS enrichment (R)": 0.693}
{"Sequence": "UAUGCUGGAUAUCCAGGUUCUCGCCAGGCCCCGAUACAUGAAUAACAAACCCAAGAAACGCAUCCCCAUUGUGUGAUGUGUUCAGAUGCAUCUGGCACCAAUUAGGUAUU", "RBNS enrichment (R)": 0.969}
{"Sequence": "GUCUGAAUUGAGUUUGUAUUUCUAGCACCCUGGGUUUUUACAUGUUUGCUCUUUUUGUUUUUGUUUGUCACCCCUCGAUAAAGAAAGUAUAUUCAUUUGUGUUGCUGGUU", "RBNS enrichment (R)": 6.57}
{"Sequence": "AUGUUUGUCUUGUUUUGUUCAUUUGGCCAGUAAGGAAUGUCCCUGGGCUUUGAGUUUCCAGAAAGAGAUGGAAUAAUGGAGACUUUCUUUCCCUGGGGACCAGUGUCAGU", "RBNS enrichment (R)": 11.1}
{"Sequence": "CUCCUGAUGUAAACAUUUCCCCCACUUUCCAAAUAAUGGUAAAGAAAACAGUGGCAAGGGCUGUUCUGUUUUCUGGUACCUGAGUGAAACUCAGAAGAAAAGCAGGCUUA", "RBNS enrichment (R)": 0.472}
{"Sequence": "UGAAAACAAUUUUUUUGAAUCUUUCUUAGCCUAAAAGACCCAUUUUCCUUGGAACAUGUAAGAACUGUGCAGUAGCCAUUUAUGGUUUAAAGUAAACAGGCCAGAUGAAC", "RBNS enrichment (R)": 0.325}
{"data": "Set 2", "target": "Centromere-binding protein 1, full length, N-terminal tag (CBF1, Saccharomyces cerevisiae, UniProt P17106, residues 1-351)", "technique": "protein-binding microarray", "form": "double-stranded DNA, one strand shown", "sample": "in vitro", "tested at": "0.8 µM", "notes": "whole 60-bp probe, no competitor", "reading": "higher = stronger binding", "shared flanks, not repeated": "… GTCTTGATTCGCTTGACGCTGCTG", "sequence of UniProt P17106 (whole entry, looked up)": "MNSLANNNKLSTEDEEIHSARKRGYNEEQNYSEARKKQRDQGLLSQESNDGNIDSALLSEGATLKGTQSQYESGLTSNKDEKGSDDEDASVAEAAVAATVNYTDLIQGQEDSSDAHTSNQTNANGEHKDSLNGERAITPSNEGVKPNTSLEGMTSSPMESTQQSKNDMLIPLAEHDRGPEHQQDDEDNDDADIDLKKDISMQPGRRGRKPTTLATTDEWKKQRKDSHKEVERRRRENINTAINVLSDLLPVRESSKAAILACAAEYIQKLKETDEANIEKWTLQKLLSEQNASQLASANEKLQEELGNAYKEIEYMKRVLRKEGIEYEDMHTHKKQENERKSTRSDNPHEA"}
{"Sequence": "CTACATAGTGGTTACCACCAGATCCCGATGGAATTC", "fluorescence intensity [a.u.]": 485}
{"Sequence": "GAAATCACGCTTCATCACCTGAGAAAAGTAACATAG", "fluorescence intensity [a.u.]": 896}
{"Sequence": "CTATGTTTTTTTCATCATGATATCTGTTTTAGGTTC", "fluorescence intensity [a.u.]": 610}
{"Sequence": "CTACAGCCGTACATACACGTGCCATTTATCTTGTTC", "fluorescence intensity [a.u.]": 7400}
{"Sequence": "GAATAACAATACCATTACATCAGCCGATAATATTAG", "fluorescence intensity [a.u.]": 543}
{"Sequence": "CTACAGTTTTCCACATCCGTGATTTGGCGCAAATTC", "fluorescence intensity [a.u.]": 582}
{"Sequence": "GAATACTGATGACAGCAGGTGTATTATTAATACTAG", "fluorescence intensity [a.u.]": 582}
{"Sequence": "CTATGTAGTCCTCAACATGTGCAGACGAATAAATTC", "fluorescence intensity [a.u.]": 640}
{"Sequence": "GAAAGATATAAATCTAACGTGGATTTGTTACAGTAG", "fluorescence intensity [a.u.]": 524}
{"Sequence": "CTAATAGTTAATGATCACGACGGCAATGACAAATTC", "fluorescence intensity [a.u.]": 920}
{"Sequence": "CTACCGTCCGCACATGATGTCATTTCCCCCTCATTC", "fluorescence intensity [a.u.]": 1450}
{"Sequence": "CTAACATCTACAGTCCACCTGCCCCTTCCTTCGTTC", "fluorescence intensity [a.u.]": 528}
{"Sequence": "CTACTCCGGGTGAACCCCACGACAACTTACCTGTTC", "fluorescence intensity [a.u.]": 477}
{"Sequence": "CTAGGTAGTCTAAAGAACGTGCATCAGAGAAGATTC", "fluorescence intensity [a.u.]": 812}
{"Sequence": "CTATACAAGAAAACTATCGTGGGTGAAGCTGCATTC", "fluorescence intensity [a.u.]": 524}
{"Sequence": "CTATCGGTGTAAAAGCACGTACACCGCGTTCGGTTC", "fluorescence intensity [a.u.]": 525}
{"Sequence": "GAATCTGTGCTTACTCACGTGAAAGAGAGGGAATAG", "fluorescence intensity [a.u.]": 3300}
{"Sequence": "CTATTCATTCCGTGGTGCGTGATCTGATGAGAATTC", "fluorescence intensity [a.u.]": 1190}
{"Sequence": "GAACTCTGTACTGGCTACGTGCCATGCTGGCCTTAG", "fluorescence intensity [a.u.]": 2610}
{"Sequence": "TGTACGAAGCTATGACACGTGGGTATAGTAGTTAGG", "fluorescence intensity [a.u.]": 3800}
{"Sequence": "GAAGGCATTTTCACTGGTGATGCACGCCCAGCGTAG", "fluorescence intensity [a.u.]": 506}
{"Sequence": "CTAATTCTGCCAAAAAACGTGAATACTCTATGTTTC", "fluorescence intensity [a.u.]": 589}
{"Sequence": "CCTAACTACTATAAAGACGTGATATAGCTTCGTACA", "fluorescence intensity [a.u.]": 608}
{"Sequence": "GAATTTCTTGCCTTATACACCACCTATTCTGGCTAG", "fluorescence intensity [a.u.]": 510}
{"Sequence": "GAACTCGAGAGAAAGCACGTTCCAGGAATCTGCTAG", "fluorescence intensity [a.u.]": 683}
{"data": "Set 3", "target": "ABI1, truncated, D143A, DHFR fusion (Arabidopsis thaliana)", "technique": "DHFR PCA, deep sequencing", "sample": "yeast", "notes": "methotrexate growth selection, single substitutions", "added": "(+)-ABA 0.032 µM", "reference": "wild-type fitted maximum", "reading": "higher = stronger binding", "parent": "PYL1, truncated, DHFR fusion (Arabidopsis thaliana); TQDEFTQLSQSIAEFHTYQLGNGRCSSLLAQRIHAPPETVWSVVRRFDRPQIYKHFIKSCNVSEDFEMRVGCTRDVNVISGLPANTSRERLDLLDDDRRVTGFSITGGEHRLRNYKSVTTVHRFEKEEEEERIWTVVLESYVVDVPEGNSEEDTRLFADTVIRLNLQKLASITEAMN"}
{"Substitution": "V70D", "relative binding score [%]": 3.91}
{"Substitution": "F56Q", "relative binding score [%]": -6.44}
{"Substitution": "G81I", "relative binding score [%]": 3.24}
{"Substitution": "I162S", "relative binding score [%]": 4.98}
{"Substitution": "S9Q", "relative binding score [%]": 54.6}
{"Substitution": "P83Y", "relative binding score [%]": 7.82}
{"Substitution": "L93I", "relative binding score [%]": 68}
{"Substitution": "S59G", "relative binding score [%]": 5.96}
{"Substitution": "D96E", "relative binding score [%]": 31}
{"Substitution": "G148C", "relative binding score [%]": 6.52}
{"Substitution": "R45N", "relative binding score [%]": -6.57}
{"Substitution": "S11Y", "relative binding score [%]": 15.9}
{"Substitution": "L156H", "relative binding score [%]": 3.21}
{"Substitution": "D95M", "relative binding score [%]": -4.08}
{"data": "Set 4", "target": "CCNF, cyclin fold, Cln2 fusion (human)", "technique": "yeast growth competition, sequencing", "sample": "yeast", "notes": "strong parent motif", "reference": "not given", "reading": "higher = stronger binding", "parent": "REPIN1 docking peptide (human); QSFRGWVALVLHL"}
{"Substitution": "QSFRGAVALVLHL [W6A]", "normalised enrichment score": 0.919}
{"Substitution": "QSFRAWVALVLHL [G5A]", "normalised enrichment score": 2.72}
{"Substitution": "ASFRGWVALVLHL [Q1A]", "normalised enrichment score": 2.06}
{"Substitution": "QSFAGWVALVLHL [R4A]", "normalised enrichment score": 1.37}
{"Substitution": "QSFRGWVALVAHL [L11A]", "normalised enrichment score": 2.21}
{"Substitution": "QSARGWVALVLHL [F3A]", "normalised enrichment score": 1.75}
{"data": "Set 5", "target": "FOSL1, bZIP domain (human)", "technique": "DHFR protein complementation", "sample": "yeast", "notes": "single substitutions, most at no-binding floor", "reference": "wild-type JUN-FOS pair", "reading": "higher = stronger binding", "parent": "JUN, bZIP domain (human); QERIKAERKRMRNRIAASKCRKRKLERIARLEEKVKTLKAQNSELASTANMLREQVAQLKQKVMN; partner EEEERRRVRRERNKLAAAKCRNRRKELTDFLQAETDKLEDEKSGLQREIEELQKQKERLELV"}
{"Substitution": "S47Y", "binding fitness": "-0.515 natural log"}
{"Substitution": "S43P", "binding fitness": "-1.41 natural log"}
{"Substitution": "L38S", "binding fitness": "-1.36 natural log"}
{"Substitution": "L45C", "binding fitness": "-1.36 natural log"}
{"Substitution": "E44Y", "binding fitness": "-0.808 natural log"}
{"Substitution": "A57K", "binding fitness": "-0.393 natural log"}
{"Substitution": "S47T", "binding fitness": "-0.397 natural log"}
{"Substitution": "S43A", "binding fitness": "-0.202 natural log"}
{"Substitution": "M51Y", "binding fitness": "-0.438 natural log"}
{"Substitution": "L45I", "binding fitness": "-1.48 natural log"}
{"Substitution": "A29V", "binding fitness": "-0.774 natural log"}
{"Substitution": "N42E", "binding fitness": "-1.31 natural log"}
{"Substitution": "E44P", "binding fitness": "-1.36 natural log"}
{"Substitution": "A40F", "binding fitness": "-0.583 natural log"}
{"Substitution": "A29M", "binding fitness": "-0.83 natural log"}
{"Substitution": "E32M", "binding fitness": "-0.483 natural log"}
{"Substitution": "R53K", "binding fitness": "-0.48 natural log"}
{"Substitution": "I28Y", "binding fitness": "-0.744 natural log"}
{"Substitution": "L52A", "binding fitness": "-1.4 natural log"}
{"Substitution": "I28D", "binding fitness": "-0.813 natural log"}
{"Substitution": "T37W", "binding fitness": "-0.562 natural log"}
{"Substitution": "A46T", "binding fitness": "-0.408 natural log"}
{"data": "Further values, each from its own experiment"}
{"Molecule": "PhoQ, residues 284 288 289 292 302 303 TNSAEL", "target": "PhoP, residues 12 14 15 18 19 LHSVW (Escherichia coli, UniProt P23836)", "test": "Sort-seq, refers to: YFP reporter", "system": "E. coli", "conditions": "PhoQ-PhoP variant library, added: 10 µM Mg2+", "scale": "reference: high Mg2+ state, higher = stronger signaling", "measurement": "fold induction", "result": 12.3}
{"note": "Repeated from above (set 3):"}
{"Substitution": "L156H", "relative binding score [%]": 3.21}
{"Substitution": "G148C", "relative binding score [%]": 6.52}
{"Substitution": "F56Q", "relative binding score [%]": -6.44}
{"Substitution": "L93I", "relative binding score [%]": 68}
{"Substitution": "P83Y", "relative binding score [%]": 7.82}
{"Substitution": "D95M", "relative binding score [%]": -4.08}
{"Substitution": "I162S", "relative binding score [%]": 4.98}
{"Substitution": "S11Y", "relative binding score [%]": 15.9}
